Experimental data collected from several papers.
± marks the error that the study gave.

`Cc1cccc(C)c1CN1CCn2cc(O)c(=O)cc2C1` gave a concentration of 16 nM (rat, brain; oral, 100 mg/kg, 4 h, unbound).
`O=c1[nH]c(=O)c(Cc2cccc(C(F)(F)F)c2)c([C@H]2CC[C@H](c3ccccc3)CC2)[nH]1` gave a Cmax of 645 ng/mL (human, fasted, plasma; oral, 1500 mg single dose, geometric mean).
`CC(C)[C@H](NC(=O)[C@@H]1CCCN1C(=O)[C@H](CCCNC(=N)N)NC(=O)[C@H](CS)NC(=O)[C@H](Cc1c[nH]c2ccccc12)NC(=O)[C@H](CCCNC(=N)N)NC(=O)[C@@H](Cc1ccccc1)NC(=O)[C@H](Cc1c[nH]cn1)NC(=O)[C@H](CCC(=O)O)NC(=O)[C@H](CS)NC(=O)[C@H](CS)NC(=O)[C@H](CCCCN)NC(=O)[C@@H]1CC(=O)N[C@@H](CCCNC(=N)N)C(=O)N[C@@H](C(C)C)C(=O)N[C@@H](CC(=O)O)C(=O)N[C@H](Cc2ccc(O)cc2)C(=O)N1)C(N)=O` [technetium-99m labelled] has a tissue uptake of 1.51 ± 0.6 %ID/g (female C57 mouse, B16/F1 melanoma, tumour; intravenous, dose not given, 2 h, added: NDP-MSH 10 µg co-injected).
`COc1cccc(-c2ccc(NC(=O)C3=C(C(=O)O)CCC3)c(F)c2)c1` has an AUC(0-24h) of 64500 ng·h/mL (human, male, fasted, plasma; oral, 30 mg, single dose, geometric mean).
`CCc1ccc(CCOc2ccc(CC3SC(=O)NC3=O)cc2)nc1` (stereo not drawn) — result for “intrinsic hepatic clearance”: 66 L/h (parallel tube model; human; from oral clearance).
For `CC[C@H](C)[C@H](NC(=O)[C@H](Cc1ccccc1)NC(=O)[C@H](CCC(=O)O)NC(=O)[C@H](CCCCNC(=O)COCCOCCNC(=O)COCCOCCNC(=O)CC[C@H](NC(=O)CCCCCCCCCCCCCCCCC(=O)O)C(=O)O)NC(=O)[C@H](C)NC(=O)[C@H](C)NC(=O)[C@H](CCC(N)=O)NC(=O)CNC(=O)[C@H](CCC(=O)O)NC(=O)[C@H](CC(C)C)NC(=O)[C@H](Cc1ccc(O)cc1)NC(=O)[C@H](CO)NC(=O)[C@H](CO)NC(=O)[C@@H](NC(=O)[C@H](CC(=O)O)NC(=O)[C@H](CO)NC(=O)[C@@H](NC(=O)[C@H](Cc1ccccc1)NC(=O)[C@@H](NC(=O)CNC(=O)[C@H](CCC(=O)O)NC(=O)C(C)(C)NC(=O)[C@@H](N)Cc1cnc[nH]1)[C@@H](C)O)[C@@H](C)O)C(C)C)C(=O)N[C@@H](C)C(=O)N[C@@H](Cc1c[nH]c2ccccc12)C(=O)N[C@@H](CC(C)C)C(=O)N[C@H](C(=O)N[C@@H](CCCNC(=N)N)C(=O)NCC(=O)N[C@@H](CCCNC(=N)N)C(=O)NCC(=O)O)C(C)C`, “absorption rate constant” read 0.0253 h⁻¹ (population PK model; human; subcutaneous, reference subject).
`[2H]C([2H])([2H])Oc1cc2c(cc1OC([2H])([2H])[2H])C1CC(=O)C(CC(C)C)CN1CC2` (stereo not drawn) gave a dose-normalized Cmax of 0.9 ng/mL (item: deuterated β-HTBZ; healthy human volunteers, plasma; oral, 12 mg single dose, standard meal).
`CC[C@H](C)[C@H](NC(=O)[C@H](CS)NC(=O)[C@H](CCCNC(=N)N)NC(=O)[C@H](CCCNC(=N)N)NC(=O)[C@H](CC(N)=O)NC(=O)[C@H](CCCNC(=N)N)NC(=O)[C@H](CS)NC(=O)[C@@H](NC(=O)[C@@H](NC(=O)[C@@H](NC(=O)[C@H](CS)NC(=O)[C@H](CCCCN)NC(=O)[C@@H](N)CCCNC(=N)N)C(C)C)[C@@H](C)CC)C(C)C)C(=O)N[C@H](C(=O)N[C@@H](CC(C)C)C(=O)N[C@@H](CS)C(=O)N[C@@H](CCCNC(=N)N)C(=O)O)[C@@H](C)CC`: “single disulfide form” 0% (LC-MS; PBS; 0.1 mg/mL).
With `CN(C)CCCN1c2ccccc2CCc2ccccc21` the EC20 was > 400 µM (cytochrome c release, ELISA; BALB/cByJ female mouse liver mitochondria; 30 min; relative to: alamethicin maximal release).
With `CCCC[C@H](NC(C)=O)C(=O)N[C@H]1CCC(=O)NC[C@@H](C(=O)N[C@@H](Cc2c[nH]c3ccccc23)C(N)=O)NC(=O)[C@H](CCCNC(=N)N)NC(=O)[C@@H](Cc2ccccc2)NC(=O)[C@H](Cc2c[nH]cn2)NC1=O` the Cmax was 572 ng/mL (CD Sprague Dawley rat, male, plasma; subcutaneous, 1.0 mg/kg daily, day 14).
`COc1cc(Nc2ncc3c(n2)-c2ccc(Cl)cc2C(c2c(F)cccc2OC)=NC3)ccc1C(=O)O` gave an AUC(0-8h) of 2630 ± 607 ng·h/mL (human, phase I; oral, 30 mg single dose).
`CC1=C(CC(=O)O)c2cc(F)ccc2/C1=C\c1ccc([S+](C)[O-])cc1` (stereo not drawn) gave an EC20 of > 200 µM (mitochondrial swelling; BALB/cByJ female mouse liver mitochondria; 30 min, added: succinate + rotenone; relative to: CaCl2 maximal swelling).
`Cn1c(-c2ccc(C(N)=O)cc2F)nnc1C(C)(C)Oc1c(F)cc(Cl)cc1F` has an AUC(0-tau) range of 1480 to 4480 ng·h/mL (healthy young Japanese subjects, plasma; oral, 20 mg once daily, day 18, 14 days dosing).
`CCCC[C@@H]1NC(=O)[C@@H](NC(=O)[C@H](CCC(=O)O)NC(=O)CNC(=O)CN2CCN(CC(=O)O)CCN(CC(=O)O)CCN(CC(=O)O)CC2)CCCCNC(=O)C[C@@H](C(N)=O)NC(=O)[C@H](C(C)C)NC(=O)[C@@H]2CCCN2C(=O)[C@H](CCCNC(=N)N)NC(=O)CNC(=O)[C@H](Cc2c[nH]c3ccccc23)NC(=O)[C@H](CCCNC(=N)N)NC(=O)[C@@H](Cc2ccccc2)NC(=O)[C@H](Cc2c[nH]cn2)NC(=O)[C@H](CCC(=O)O)NC1=O` [indium-111 labelled] gave a tissue uptake of 0.1 ± 0.07 %ID/g (C57 mice, B16/F10 lung metastatic melanoma, pancreas; intravenous, 0.037 MBq, 4 h).
`C[C@]12CC[C@@H]3c4ccc(O)cc4CC[C@H]3[C@@H]1C[C@@H](O)[C@@H]2O`: “minimum serum concentration” 0 ng/mL (GC-MS; breast cancer women on NSAI, serum; vaginal, 0.03 mg daily, 0.5 h, day 28).
For `COc1cc2c(cc1OC)CN(CCc1ccc(NC(=O)c3cc(OC)c(OC)cc3NC(=O)c3cnc4ccccc4c3)cc1)CC2`, the brain concentration was 2570 ng/mL (Wistar Unilever rat; intravenous, 7.5 mg/kg, 3 h).
`NC(=O)OCC(COC(N)=O)c1ccccc1` — result for ALP: “decreased” (Sprague-Dawley rat, male, blood; oral, 1920 mg/kg, 6 h).
The EC20 of `CC[C@]1(O)C[C@@H]2CN(CCc3c([nH]c4ccccc34)[C@@](C(=O)OC)(c3cc4c(cc3OC)N(C)[C@H]3[C@@](O)(C(=O)OC)[C@H](OC(C)=O)[C@]5(CC)C=CCN6CC[C@]43[C@@H]65)C2)C1` is reported as > 400 µM (cytochrome c release, ELISA; BALB/cByJ female mouse liver mitochondria; 30 min; relative to: alamethicin maximal release).
Under “reverse disulfide exchange rate constant”, `CC(=O)N[C@H](CSSC[C@H](N)C(=O)O)C(=O)N[C@H](C)C(=O)N[C@H](CCCNC(=N)N)C(=O)N[C@H](CCCNC(=N)N)C(=O)N[C@H](CCCNC(=N)N)C(=O)N[C@H](C)C(=O)N[C@H](CCCNC(=N)N)C(N)=O` is recorded as 0.0025 min⁻¹ (human whole blood; 37 °C, from biotransformed products).
With `Cc1nc2cccc(OCC(C)(C)C(=O)NC(C)C)c2c(N)c1C(=O)O` the Cmax was 39 ng/mL (Sprague-Dawley rat both sexes, plasma; dietary, 30 mg/kg/day, day 90).
For `COC(=O)C[C@](O)(CCCC(C)(C)O)C(=O)O[C@@H]1C(OC)=C[C@]23CCCN2CCc2cc4c(cc2[C@H]13)OCO4`, tissue concentration read “not detected” (CD1 mouse, brain; oral, 1 mg/kg, 2 h, below quantification limit 1.00 ng/mL).
Under “serum stability time”, `CCCC(=O)OCC1OC(OC(=O)CCC)C(NC(C)=O)[C@@H](OC(=O)CCC)[C@@H]1OC(=O)CCC` (stereo partly drawn) is recorded as 2 to 4 h (sialic acid production; fetal bovine serum; added: 100% serum pre-incubation).
The half-life of `Cn1nnc2c(C(N)=O)ncn2c1=O` is reported as 1.98 h (chemical stability, HPLC; PBS; pH 7.4).
For `Cn1c(=O)c2c(ncn2C)n(C)c1=O`, the EC20 was > 400 µM (mitochondrial swelling; BALB/cByJ female mouse liver mitochondria; 30 min, added: succinate + rotenone; relative to: CaCl2 maximal swelling).
`CN[C@H](CC(C)C)C(=O)N[C@H]1C(=O)N[C@@H](CC(N)=O)C(=O)N[C@H]2C(=O)N[C@H]3C(=O)N[C@H](C(=O)N[C@H](C(=O)O)c4cc(O)cc(O)c4-c4cc3ccc4O)[C@H](O)c3ccc(c(Cl)c3)Oc3cc2cc(c3O[C@@H]2O[C@H](CO)[C@@H](O)[C@H](O)[C@H]2O[C@H]2C[C@](C)(N)[C@H](O)[C@H](C)O2)Oc2ccc(cc2Cl)[C@H]1O` has a bioavailability fraction of 0.459 (two-compartment model; Sprague-Dawley rat, plasma; intraperitoneal, 150 mg/kg/day).
With `CS(=O)(=O)OCCCCOS(C)(=O)=O` the EC20 was > 800 µM (mitochondrial swelling; BALB/cByJ female mouse liver mitochondria; 30 min, added: succinate + rotenone; relative to: CaCl2 maximal swelling).
The concentration of `S=C(NCCCc1c[nH]cn1)NCCCN(Cc1ccc(Cl)c(Cl)c1)c1ccc(Br)cn1` is reported as 2360 ng/mL (male C57BL/6 mouse, plasma; intraperitoneal, 30 mg/kg, 15 min).
`COc1cc2c(cc1OC)CN(CCc1ccc(NC(=O)c3cc(OC)c(OC)cc3NC(=O)c3cnc4ccccc4c3)cc1)CC2` gave a clearance of 226 mL/min (human, plasma; intravenous infusion, 6 mg/kg).
`CCOc1ccc2c(c1)C(C)=CC(C)(C)N2` gave a residue concentration of 21.2 ± 3.1 ng/g (LC-MS/MS; laying hens, liquid whole egg; oral, 50 mg/kg feed, 56 days).
`CCn1cc(-c2cc(Cn3ccnc3)cc3c2CCN([C@H](c2cc(OC)ccn2)C2CC2)C3=O)c(C(F)(F)F)n1` has a clearance of 20 mL/min/kg (male CD-1 mouse, plasma; intravenous, 3 mg/kg).
`Cn1cnc2c(F)c(Nc3ccc(Br)cc3Cl)c(C(=O)NOCCO)cc21` — result for “fraction metabolised ratio”: ~0.73 (item: N-desmethyl metabolite; human; oral; relative to: steady state over single dose).
`CCc1oc2ccc(OC)cc2c1C(=O)c1ccc(O)cc1` has a microsomal CLint of 61.6 µL/min/mg (metabolic stability; Sprague-Dawley rat, liver microsomes; 1 µM, pH 7.4).
`CO[C@H]1O[C@H](COS(=O)(=O)O)[C@@H](O[C@@H]2O[C@@H](C(=O)O)[C@@H](O[C@H]3O[C@H](COS(=O)(=O)O)[C@@H](O[C@@H]4O[C@H](C(=O)O)[C@@H](O[C@H]5O[C@H](COS(=O)(=O)O)[C@@H](O)[C@H](O)[C@H]5NS(=O)(=O)O)[C@H](O)[C@H]4O)[C@H](OS(=O)(=O)O)[C@H]3NS(=O)(=O)O)[C@H](O)[C@H]2OS(=O)(=O)O)[C@H](O)[C@H]1NS(=O)(=O)O` has a bioavailability of 115% (male Wistar rat, plasma; subcutaneous, 200 µg/kg).
`Cc1cc(C)c2c(c1)[C@@H](N(Cc1cc(C(F)(F)F)cc(C(F)(F)F)c1)c1nnn(C)n1)CCCN2C[C@H]1CC[C@H](C(=O)O)CC1`: “AUC(0-tau) at steady state” 5500 ng·h/mL (human, dyslipidemic patients, plasma; oral, 100 mg daily, geometric mean, added: atorvastatin).
`C[C@](N)(Cc1ccc(O)c(O)c1)C(=O)O` gave an EC20 of > 400 µM (mitochondrial swelling; BALB/cByJ female mouse liver mitochondria; 30 min, added: succinate + rotenone; relative to: CaCl2 maximal swelling).
`colistin methanesulfonate` — result for “absorption rate constant”: 0.878 ± 0.342 h⁻¹ (one-compartment PK model; rat; i.p., 20 mg/kg colistin base activity).
